{"data": "Assay results gathered from unrelated publications", "B1": "SIRT1 del7-83 (Homo sapiens, UniProt Q96EB6); sequence looked up; chain MADEAAAAAGGEQEAQATAAAGEGDNGPGLQGPSREPPLADNLYDEDDDDEGEEEEEAAAAAIGYRDNLLFGDEIITNGFHSCESDEEDRASHASSSDWTPRPRIGPYTFVQQHLMIGTDPRTILKDLLPETIPPPELDDMTLWQIVINILSEPPKRKKRKDINTIEDAVKLLQECKKIIVLTGAGVSVSCGIPDFRSRDGIYARLAVDFPDLPDPQAMFDIEYFRKDPRPFFKFAKEIYPGQFQPSLCHKFIALSDKEGKLLRNYTQNIDTLEQVAGIQRIIQCHGSFATASCLICKYKVDCEAVRGDIFNQVVPRCPRCPADEPLAIMKPEIVFFGENLPEQFHRAMKYDKDEVDLLIVIGSSLKVRPVALIPSSIPHEVPQILINREPLPHLHFDVELLGDCDVIINELCHRLGGEYAKLCCNPVKLSEITEKPPRTQKELAYLSELPPTPLHVSEDSSSPERTSPPDSSVIVTLLDQAAKSNDDLDVSESKGCMEEKPQEVQTSRNVESIAEQMENPDLKNVGSSTGEKNERTSVAGTVRKCWPNRVAKEQISRRLDGNQYLFLPPNRYIFHGAEVYSDSEDDVLSSSSCGSNSDSGTCQSPSLEEPMEDESEIEEFYNGLEDEPDVPERAGGAGFGTDGDDQEAINEAISVKQEVTDMNYPSNKS", "B2": "rpn10 (Schizosaccharomyces pombe, UniProt O94444); sequence looked up; chain MVLEATMILIDNSEWMINGDYIPTRFEAQKDTVHMIFNQKINDNPENMCGLMTIGDNSPQVLSTLTRDYGKFLSAMHDLPVRGNAKFGDGIQIAQLALKHRENKIQRQRIVAFVGSPIVEDEKNLIRLAKRMKKNNVAIDIIHIGELQNESALQHFIDAANSSDSCHLVSIPPSPQLLSDLVNQSPIGQGVVASQNQFEYGVDPNLDVELALALELSMAEERARQEVAAQKSSEETEDKKMQE", "B3": "UGT1A9 (Homo sapiens, UniProt O60656); chain GKLLVVPMDGSHWFTMRSVVEKLILRGHEVVVVMPEVSWQLGRSLNCTVKTYSTSYTLEDLDREFKAFAHAQWKAQVRSIYSLLMGSYNDIFDLFFSNCRSLFKDKKLVEYLKESSFDAVFLDPFDNCGLIVAKYFSLPSVVFARGILCHYLEEGAQCPAPLSYVPRILLGFSDAMTFKERVRNHIMHLEEHLLCHRFFKNALEIASEILQTPVTEYDLYSHTSIWLLRTDFVLDYPKPVMPNMIFIGGINCHQGKPLPMEFEAYINASGEHGIVVFSLGSMVSEIPEKKAMAIADALGKIPQTVLWRYTGTRPSNLANNTILVKWLPQNDLLGHPMTRAFITHAGSHGVYESICNGVPMVMMPLFGDQMDNAKRMETKGAGVTLNVLEMTSEDLENALKAVINDKSYKENIMRLSSLHKDRPVEPLDLAVFWVEFVMRHKGAPHLRPAAHDLTWYQYHSLDVIGFLLAVVLTVAFITFKCCAYGYRKCLGKKGRVKKAHKSKTH", "B4": "Plau amino terminal fragment 21-155 (Mus musculus, UniProt P06869); conjugated to PEG iron oxide nanoparticles; sequence looked up; chain GSVLGAPDESNCGCQNGGVCVSYKYFSRIRRCSCPRKFQGEHCEIDASKTCYHGNGDSYRGKANTDTKGRPCLAWNAPAVLQKPYNAHRPDAISLGLGKHNYCRNPDNQKRPWCYVQIGLRQFVQECMVHDCSLS", "note": "± gives the spread as reported.", "UniProt Q02248, sequence (whole entry, looked up)": "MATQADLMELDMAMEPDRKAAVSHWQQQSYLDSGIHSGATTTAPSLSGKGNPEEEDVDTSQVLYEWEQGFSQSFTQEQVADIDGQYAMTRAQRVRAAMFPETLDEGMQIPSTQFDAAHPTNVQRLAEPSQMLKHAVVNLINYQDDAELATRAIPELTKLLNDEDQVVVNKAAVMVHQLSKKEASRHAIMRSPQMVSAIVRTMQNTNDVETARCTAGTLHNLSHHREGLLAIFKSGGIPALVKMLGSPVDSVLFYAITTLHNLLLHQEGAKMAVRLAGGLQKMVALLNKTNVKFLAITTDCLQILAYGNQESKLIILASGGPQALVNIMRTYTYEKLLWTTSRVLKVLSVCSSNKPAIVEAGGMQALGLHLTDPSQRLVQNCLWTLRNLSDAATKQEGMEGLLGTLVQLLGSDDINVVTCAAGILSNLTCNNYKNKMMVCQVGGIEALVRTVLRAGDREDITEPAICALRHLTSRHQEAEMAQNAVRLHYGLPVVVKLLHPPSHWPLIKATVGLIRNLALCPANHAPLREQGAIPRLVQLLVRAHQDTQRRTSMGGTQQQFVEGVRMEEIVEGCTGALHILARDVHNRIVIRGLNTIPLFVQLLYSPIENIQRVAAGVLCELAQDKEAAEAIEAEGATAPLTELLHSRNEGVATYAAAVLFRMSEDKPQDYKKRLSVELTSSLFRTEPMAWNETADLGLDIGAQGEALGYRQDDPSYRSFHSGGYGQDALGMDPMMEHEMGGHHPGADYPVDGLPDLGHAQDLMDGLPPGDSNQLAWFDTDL", "UniProt P12004, sequence (whole entry, looked up)": "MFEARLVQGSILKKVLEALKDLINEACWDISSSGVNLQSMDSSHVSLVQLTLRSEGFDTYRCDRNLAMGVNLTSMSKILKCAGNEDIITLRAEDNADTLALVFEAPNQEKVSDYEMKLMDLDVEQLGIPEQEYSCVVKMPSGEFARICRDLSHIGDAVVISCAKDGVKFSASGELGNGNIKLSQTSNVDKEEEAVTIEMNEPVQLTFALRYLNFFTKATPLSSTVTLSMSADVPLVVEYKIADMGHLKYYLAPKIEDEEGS", "UniProt Q99828, sequence (whole entry, looked up)": "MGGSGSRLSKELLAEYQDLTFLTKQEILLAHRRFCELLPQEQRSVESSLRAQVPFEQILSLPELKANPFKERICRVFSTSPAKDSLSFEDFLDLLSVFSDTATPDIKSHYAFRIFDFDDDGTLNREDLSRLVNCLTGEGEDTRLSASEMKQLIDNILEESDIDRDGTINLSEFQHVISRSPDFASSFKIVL", "UniProt O75899, sequence (whole entry, looked up)": "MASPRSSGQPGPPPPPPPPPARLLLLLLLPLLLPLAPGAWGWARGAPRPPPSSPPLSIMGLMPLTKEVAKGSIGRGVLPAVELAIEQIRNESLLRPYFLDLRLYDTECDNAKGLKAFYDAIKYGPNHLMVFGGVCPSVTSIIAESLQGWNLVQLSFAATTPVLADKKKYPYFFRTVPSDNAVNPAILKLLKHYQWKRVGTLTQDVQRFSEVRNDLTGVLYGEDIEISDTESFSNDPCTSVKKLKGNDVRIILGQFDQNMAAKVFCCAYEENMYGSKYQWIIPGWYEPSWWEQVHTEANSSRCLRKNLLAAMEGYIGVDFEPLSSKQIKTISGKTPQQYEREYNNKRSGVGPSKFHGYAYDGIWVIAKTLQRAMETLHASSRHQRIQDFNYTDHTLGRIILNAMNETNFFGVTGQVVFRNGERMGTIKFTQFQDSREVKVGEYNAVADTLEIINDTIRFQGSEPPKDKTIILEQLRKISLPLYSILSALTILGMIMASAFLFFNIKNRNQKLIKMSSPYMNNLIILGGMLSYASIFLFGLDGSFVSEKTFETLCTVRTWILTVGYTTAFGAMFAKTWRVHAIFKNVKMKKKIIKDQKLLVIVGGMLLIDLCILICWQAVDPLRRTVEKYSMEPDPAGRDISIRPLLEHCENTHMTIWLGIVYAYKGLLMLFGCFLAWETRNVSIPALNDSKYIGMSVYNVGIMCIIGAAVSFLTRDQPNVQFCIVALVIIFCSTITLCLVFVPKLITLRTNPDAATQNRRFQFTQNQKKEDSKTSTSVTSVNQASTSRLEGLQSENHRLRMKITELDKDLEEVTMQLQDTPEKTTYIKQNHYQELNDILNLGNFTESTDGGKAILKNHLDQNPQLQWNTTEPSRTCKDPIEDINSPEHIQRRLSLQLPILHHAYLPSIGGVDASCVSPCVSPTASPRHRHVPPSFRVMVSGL", "UniProt O93603, sequence (whole entry, looked up)": "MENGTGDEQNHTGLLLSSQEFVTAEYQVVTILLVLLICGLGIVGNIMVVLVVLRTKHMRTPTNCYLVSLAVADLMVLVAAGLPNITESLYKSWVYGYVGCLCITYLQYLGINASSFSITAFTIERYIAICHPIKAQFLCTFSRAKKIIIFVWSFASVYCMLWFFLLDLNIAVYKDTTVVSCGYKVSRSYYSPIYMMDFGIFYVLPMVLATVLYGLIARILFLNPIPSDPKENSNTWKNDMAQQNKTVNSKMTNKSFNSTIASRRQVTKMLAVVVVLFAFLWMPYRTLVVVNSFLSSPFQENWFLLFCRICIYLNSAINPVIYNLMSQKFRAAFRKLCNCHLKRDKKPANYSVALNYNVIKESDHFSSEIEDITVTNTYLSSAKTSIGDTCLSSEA", "UniProt Q13569, sequence (whole entry, unmodified, looked up)": "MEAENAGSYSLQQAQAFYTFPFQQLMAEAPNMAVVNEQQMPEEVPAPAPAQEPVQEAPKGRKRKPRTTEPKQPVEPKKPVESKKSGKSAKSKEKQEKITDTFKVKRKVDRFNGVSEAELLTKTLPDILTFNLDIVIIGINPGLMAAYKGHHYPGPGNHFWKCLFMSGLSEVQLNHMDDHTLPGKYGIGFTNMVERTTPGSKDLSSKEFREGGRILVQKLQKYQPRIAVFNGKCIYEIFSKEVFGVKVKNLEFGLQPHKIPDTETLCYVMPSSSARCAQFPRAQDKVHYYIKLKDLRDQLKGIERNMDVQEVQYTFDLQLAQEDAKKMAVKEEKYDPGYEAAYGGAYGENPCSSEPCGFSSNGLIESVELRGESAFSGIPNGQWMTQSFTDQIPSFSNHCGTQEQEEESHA", "UniProt P35456, sequence (whole entry, looked up)": "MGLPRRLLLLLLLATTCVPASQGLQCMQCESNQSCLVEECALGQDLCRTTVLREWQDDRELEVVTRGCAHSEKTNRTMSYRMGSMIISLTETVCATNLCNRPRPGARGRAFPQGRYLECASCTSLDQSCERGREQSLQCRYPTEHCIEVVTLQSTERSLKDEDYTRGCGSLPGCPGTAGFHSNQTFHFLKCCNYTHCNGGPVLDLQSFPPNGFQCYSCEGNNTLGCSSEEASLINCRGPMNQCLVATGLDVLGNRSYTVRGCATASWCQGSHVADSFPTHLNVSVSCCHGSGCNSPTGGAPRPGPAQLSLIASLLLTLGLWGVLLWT", "UniProt P87048, sequence (whole entry, unmodified, looked up)": "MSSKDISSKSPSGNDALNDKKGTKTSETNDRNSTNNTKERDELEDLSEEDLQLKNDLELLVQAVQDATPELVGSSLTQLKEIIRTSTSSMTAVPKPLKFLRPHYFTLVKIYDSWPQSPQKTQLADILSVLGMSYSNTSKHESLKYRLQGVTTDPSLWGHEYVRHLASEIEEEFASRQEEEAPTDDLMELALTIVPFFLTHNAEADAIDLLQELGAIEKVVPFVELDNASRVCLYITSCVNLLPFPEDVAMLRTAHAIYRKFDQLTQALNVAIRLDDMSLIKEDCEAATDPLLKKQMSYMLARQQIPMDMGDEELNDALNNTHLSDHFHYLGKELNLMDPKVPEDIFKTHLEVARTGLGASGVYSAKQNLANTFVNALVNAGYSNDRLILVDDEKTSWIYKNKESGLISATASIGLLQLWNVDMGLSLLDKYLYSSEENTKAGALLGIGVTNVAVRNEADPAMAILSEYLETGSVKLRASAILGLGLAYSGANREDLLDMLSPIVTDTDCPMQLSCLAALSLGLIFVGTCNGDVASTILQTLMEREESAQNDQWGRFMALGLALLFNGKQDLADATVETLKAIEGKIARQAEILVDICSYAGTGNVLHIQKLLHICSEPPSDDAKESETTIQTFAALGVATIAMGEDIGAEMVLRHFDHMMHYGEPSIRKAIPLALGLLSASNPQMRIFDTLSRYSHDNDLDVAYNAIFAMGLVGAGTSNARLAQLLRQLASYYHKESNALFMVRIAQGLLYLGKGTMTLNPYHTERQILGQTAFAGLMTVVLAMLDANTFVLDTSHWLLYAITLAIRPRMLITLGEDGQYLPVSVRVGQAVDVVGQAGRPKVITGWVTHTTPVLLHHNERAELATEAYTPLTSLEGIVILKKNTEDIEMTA"}
{"Molecule": "Ctnnb1 (Mus musculus, UniProt Q02248)", "target or system": "Cdh1 157-884 (Mus musculus, UniProt P09803)", "assay": "co-IP", "system": "HEK293T", "setting": "0.2 µg", "scale": "reference: control, higher = more E-cadherin", "endpoint": "E-cadherin coprecipitated", "result": "0.49 a.u."}
{"Molecule": "B1 (SIRT1 del7-83)", "target or system": "TDG (Homo sapiens, UniProt Q13569)", "assay": "TDG glycosylase activity", "setting": "2 nM, together with: caC/G-DNA", "scale": "reference: acetylated TDG, higher = greater enhancement", "endpoint": "enhancement of activity", "result": "2.5 fold"}
{"Molecule": "thyrotropin-releasing hormone, pyroGlu, C-terminal amide (Gallus gallus)", "target or system": "protein (Gallus gallus, UniProt O93603)", "assay": "calcium signaling, NFAT-RE luciferase reporter, agonist", "system": "HEK 293", "endpoint": "EC50", "result": "0.22 nM"}
{"Molecule": "B2 (rpn10)", "target or system": "mts4 (Schizosaccharomyces pombe, UniProt P87048)", "assay": "co-IP", "scale": "reference: mutant strain, higher = more Rpn10", "endpoint": "relative amount", "result": "12 fold"}
{"Molecule": "clr4 F256A (Schizosaccharomyces pombe)", "target or system": "H3C1 fragment, K14 ubiquitin isopeptide", "assay": "H3K9 methylation, MTase-Glo", "scale": "reference: wild-type Clr4, lower = less activity", "endpoint": "relative HMTase activity", "result": "60%"}
{"Molecule": "EDGGSFWYRAMKALYG (designed peptide)", "target or system": "CIB1 (Homo sapiens, UniProt Q99828)", "assay": "competition with peptide, competitor, TR-FRET", "system": "peptide", "endpoint": "IC50", "result": "16 ± 7 nM"}
{"Molecule": "KPPRPG (PTK2 residues 706-711 (Homo sapiens))", "target or system": "PIK3R1 (Homo sapiens, UniProt P27986)", "assay": "lipid kinase activity", "system": "peptide, immunopurified enzyme", "setting": "0.1-100 µM", "scale": "reference: no peptide, higher = more activity", "endpoint": "PtdIns 3-kinase activity", "result": "2.5 fold"}
{"Molecule": "GABBR1 GABAB1b isoform, full length E423R (Homo sapiens)", "target or system": "GABBR2 (Homo sapiens, UniProt O75899)", "assay": "anti-Flag M1 on intact cells", "scale": "reference: WT/WT heterodimer, higher = more surface expression", "endpoint": "cell surface expression", "result": "87%"}
{"Molecule": "Reck R69A/P71A/Y73A (Mus musculus)", "target or system": "Gpr124", "assay": "luciferase reporter", "setting": "together with: Wnt7a", "scale": "reference: wild-type Reck, higher = more activity", "endpoint": "Wnt signalling activity", "result": "50%"}
{"Molecule": "B3 (UGT1A9)", "target or system": "COc1cc2c(=O)c(-c3ccccc3)coc2cc1O", "assay": "steady-state kinetics", "setting": "pH 7.4, 37 °C", "endpoint": "Km", "result": "3.08 µM"}
{"Molecule": "FAN1 fragment R507A (Homo sapiens)", "target or system": "PCNA (Homo sapiens, UniProt P12004)", "assay": "nuclease activity, activator", "scale": "reference: without PCNA, higher = more cleavage", "endpoint": "nuclease cleavage stimulation", "result": "2 fold"}
{"Molecule": "B4", "target or system": "Plaur (Mus musculus, UniProt P35456)", "assay": "iron analysis", "system": "orthotopic PANC02 tumours", "setting": "24 hours, in vivo, i.p. delivery", "scale": "reference: non-targeted BSA-PEG-IONPs, higher = more nanoparticle in tumour", "endpoint": "relative iron level", "result": "7 fold"}
